Results collected from several papers.
A part holds a random share of what one study measured. Changes are numbered by the printed parent chain.
Chain of UniProt P93024 (whole entry, looked up): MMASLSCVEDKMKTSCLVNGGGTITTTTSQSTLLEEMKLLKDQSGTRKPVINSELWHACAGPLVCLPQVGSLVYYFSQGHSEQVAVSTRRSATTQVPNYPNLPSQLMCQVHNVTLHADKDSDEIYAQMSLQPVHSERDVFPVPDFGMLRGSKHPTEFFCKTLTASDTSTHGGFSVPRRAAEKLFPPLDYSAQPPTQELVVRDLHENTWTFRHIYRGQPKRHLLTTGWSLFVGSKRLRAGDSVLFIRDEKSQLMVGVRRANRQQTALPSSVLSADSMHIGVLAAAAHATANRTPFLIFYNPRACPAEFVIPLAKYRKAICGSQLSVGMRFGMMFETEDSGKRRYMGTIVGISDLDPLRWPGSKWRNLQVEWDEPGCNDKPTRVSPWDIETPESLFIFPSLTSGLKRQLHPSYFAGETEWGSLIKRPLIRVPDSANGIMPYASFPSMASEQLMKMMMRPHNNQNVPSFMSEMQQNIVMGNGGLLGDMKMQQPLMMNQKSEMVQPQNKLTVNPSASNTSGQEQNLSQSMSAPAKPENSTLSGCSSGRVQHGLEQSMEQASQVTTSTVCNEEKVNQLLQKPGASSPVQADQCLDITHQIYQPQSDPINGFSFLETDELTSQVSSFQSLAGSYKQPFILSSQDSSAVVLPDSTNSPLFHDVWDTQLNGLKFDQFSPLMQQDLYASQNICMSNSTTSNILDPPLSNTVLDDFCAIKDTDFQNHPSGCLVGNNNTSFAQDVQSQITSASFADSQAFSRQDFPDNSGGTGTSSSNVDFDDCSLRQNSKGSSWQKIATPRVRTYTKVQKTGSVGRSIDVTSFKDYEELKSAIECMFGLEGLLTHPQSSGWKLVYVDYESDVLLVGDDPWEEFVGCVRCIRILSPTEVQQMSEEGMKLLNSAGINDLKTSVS
Chain of UniProt O23661 (whole entry, looked up): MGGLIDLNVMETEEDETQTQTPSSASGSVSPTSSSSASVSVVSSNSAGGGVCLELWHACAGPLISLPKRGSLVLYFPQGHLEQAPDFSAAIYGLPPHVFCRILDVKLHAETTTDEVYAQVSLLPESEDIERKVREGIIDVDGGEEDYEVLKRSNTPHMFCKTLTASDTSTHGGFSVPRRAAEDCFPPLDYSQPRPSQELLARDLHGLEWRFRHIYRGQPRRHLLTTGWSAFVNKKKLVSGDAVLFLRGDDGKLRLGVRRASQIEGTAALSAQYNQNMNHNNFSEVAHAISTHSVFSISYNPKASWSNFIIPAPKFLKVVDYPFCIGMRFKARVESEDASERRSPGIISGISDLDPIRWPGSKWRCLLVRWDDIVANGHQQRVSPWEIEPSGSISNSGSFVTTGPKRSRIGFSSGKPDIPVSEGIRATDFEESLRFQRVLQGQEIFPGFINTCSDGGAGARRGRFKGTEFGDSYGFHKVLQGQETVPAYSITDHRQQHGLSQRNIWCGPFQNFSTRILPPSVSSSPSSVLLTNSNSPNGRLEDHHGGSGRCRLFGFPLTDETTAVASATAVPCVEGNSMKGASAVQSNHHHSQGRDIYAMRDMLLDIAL

Sample 1
Target: Runt-related transcription factor 1, full length (RUNX1, Homo sapiens, UniProt Q01196-8, residues 1-480)
Method: protein-binding microarray
Molecule type: hairpin DNA
Medium: in vitro
Tested at: not given
Setting: whole hairpin DNA, median over replicate spots
Reference: not given
Reading: higher = stronger binding
Oligonucleotide | median fluorescence [a.u.]
GAGGCCTGTGGCGGTTGGCCTCCTGGCCAACCGCCACAGGCCTCACACTC (5mC at 35) | 2730
GAGGCCTGTTCGGGTTGGCCTCCTGGCCAACCCGAACAGGCCTCACACTC (5mC at 33) | 1720
GAGGCCTGTTGTGGTTGGCCTCCTGGCCAACCACAACAGGCCTCACACTC | 3170
GAGGCCTGTTTTGGTTGGCCTCCTGGCCAACCAAAACAGGCCTCACACTC | 1720
CTCAGTTCCGTGGGCTGGACTCCTGTCCAGCCCACGGAACTGAGACACTC | 1860
CTCAGTCCTGTGGGCTGGACTCCTGTCCAGCCCACAGGACTGAGACACTC | 1850
GAGGCCCATCCGCAACAGCCTCCTGGCTGTTGCGGATGGGCCTCACACTC | 1990
CTCAGTTCTGTGGGCGGGACTCCTGTCCCGCCCACAGAACTGAGACACTC | 2290

Sample 2
Target: RING finger protein unkempt homolog, zinc fingers 1-6, SBP tag (UNK, Homo sapiens, UniProt Q9C0B0, residues 30-357)
Chain of UniProt Q9C0B0 (30-357, looked up): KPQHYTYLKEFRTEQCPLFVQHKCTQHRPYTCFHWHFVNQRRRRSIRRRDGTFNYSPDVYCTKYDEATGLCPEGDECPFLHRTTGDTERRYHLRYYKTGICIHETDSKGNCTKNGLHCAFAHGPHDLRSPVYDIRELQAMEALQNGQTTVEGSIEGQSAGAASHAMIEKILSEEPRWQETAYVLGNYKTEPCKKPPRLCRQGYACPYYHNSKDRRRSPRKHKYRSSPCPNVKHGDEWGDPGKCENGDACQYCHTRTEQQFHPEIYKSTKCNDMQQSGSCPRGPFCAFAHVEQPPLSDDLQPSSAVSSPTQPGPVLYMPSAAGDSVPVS
Method: RNA Bind-n-Seq
Molecule type: RNA
Medium: in vitro
Tested at: 100 nM
Setting: RNA with constant flanks, vertebrate orthologous sites, ends assumed
Reference: input RNA pool
Reading: higher = stronger binding
All sequences stand within: GGGAGUUCUACAGUCCGACGAUC … CAACAGAGGAUUGAGCAUCA
Oligonucleotide | bound/input enrichment
CUCUAGUUCUUAAAAACCAACACUCGUAAAAGAUUUAGGAAAAAAGUUUACAACAUAAUCUAGUUUACCGAAGAAGCCUUGUGCUAGAAUACUUUUUAAAAAGUAUUUUUGAAUACCAUU | 1.09 ratio
GCACAUGCCGCUAUCACCAAAAGCAAACUGCCGCUUUUCAAAUUUCAUUCAGAGCCGUUUUAGUGUUUCCUAUUCCCUACCCUUUCCACUACUUAAUCCUAAAUUCUACAUUCUGACACU | 2.58 ratio
CUUACAGUCAUUUUCCCACAUUUCCUGUAAAUAAUGGAUAAUCAUUUUUAUUUUAUUUUUAAGUACUGUUUUAACAAUGUGGAUAGACCAUAAAUGUACUUGCUGAAUUCAUUCAUGUUU | 0.255 ratio
AAUUUCCAGGAUGAAGCUCUUACAUCAGGUGUCAAGAGUGUGGAAAACAGAUGGGUUGACUAGUUGUUCUUAUAAAUUAUUGUCGGUGGAACACAAUCCUUUAUAUAUCAACGUCACAGU | 0.563 ratio
GCAAAUCCAAUCACUGUGAUAUUUAAAAUAUGCACAGUCUUAAUUCCUUCUCAAUGAUCCUAGUAUUUUUCUAGCUGUAUCUUUAUAUCUCAUACUGUUAUUUAUCAGUUUUGUUCCCCU | 0.854 ratio
UCCUCAGCGUGUUCUAGCUUGUGAUCCUUCAAAGAUGGGUUAUGUGUUAAUGAUAGAUACUGGAAAUGUUUACUUCUCUCUUUCACUGAUCAGAGAAACAGGCAUUAAAAACAGAAAUAC | 0.448 ratio
UGCUGUUAAUGCACUGUAUACCAGGCAUCGUCUGACCUUAGUGUAAUCUAGGAGAUUUUAUAGUUUUAUUUUAAUGAAGUCUGGAUUGAGGCAAAGCUGAUAGGAGUCCGUAGUCUUUUA | 2.69 ratio
AGUUUGUAUGUGCAUUAUUCAUUCCUCUCUGUUGUGUUUGGGGAAAGAAAAAAAAGACAUUGAGCCUUUUUUAAGGUUAUUGAUUUAAUUUCAUGUUAUUUGGUUGCAUGAAGUUGCCCU | 0.314 ratio

Single results of other studies
P1: viral docking peptide; KGVKRKLFAEDSS; partner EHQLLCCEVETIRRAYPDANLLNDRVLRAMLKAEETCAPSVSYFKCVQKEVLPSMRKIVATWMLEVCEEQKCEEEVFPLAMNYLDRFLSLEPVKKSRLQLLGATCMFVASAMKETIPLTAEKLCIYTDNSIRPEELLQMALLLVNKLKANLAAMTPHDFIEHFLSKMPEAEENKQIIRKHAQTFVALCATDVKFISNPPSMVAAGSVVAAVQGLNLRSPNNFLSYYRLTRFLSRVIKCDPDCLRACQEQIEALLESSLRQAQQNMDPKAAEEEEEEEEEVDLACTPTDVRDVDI
Molecule | tested on | assay | test system | conditions | scale | quantity | value
ALDOA (Homo sapiens, UniProt P04075) | ALDOC (Homo sapiens, UniProt P09972) | cross-linking MS | – | hits only | – | interaction screen | cross-linked
ETT (Arabidopsis thaliana, UniProt O23661) | ARF5 788-902 (Arabidopsis thaliana, UniProt P93024) | two-hybrid | – | – | reference: out of 4 tests, higher = firmer interaction | positive tests | 0
MDH2 (Homo sapiens, UniProt P40926) | HSPE1 (Homo sapiens, UniProt P61604) | cross-linking MS | cell fractions | with: DHSO | – | cross-linked residues | E232 to E59
P1 K6Y | CCND1, cyclin fold, Cln2 fusion (human) | yeast growth competition, sequencing | yeast | strong parent motif | reference: not given, higher = stronger binding | normalised enrichment score | -0.0926
CLTB (Homo sapiens, UniProt P09497) | CLTC (Homo sapiens, UniProt Q00610) | cross-linking MS | – | hits only | – | interaction screen | cross-linked
NDUFS6 (Homo sapiens, UniProt O75380) | RIPOR1 (Homo sapiens, UniProt Q6ZS17) | cross-linking MS | cell fractions | with: DSSO | – | cross-linked residues | T40 to S1104
